Measured values gathered from unrelated publications.
Each line is one published result; not all experiments were run side by side. Numbers after ± are the reported error.

Structure (SMILES) = CC(C)(C)NCCCNC(=O)c1ccnc(C(F)(F)F)c1; target = TP53-binding protein 1 (Homo sapiens, UniProt Q12888); assay = methyl-lysine reader binding, inhibitor, AlphaScreen; IC50 = > 100 µM
Structure (SMILES) = Cc1c(NC(=O)c2ccc3c(c2)CC[C@@H]2C[C@@](O)(C(F)(F)F)CC[C@@]32Cc2ccccc2)ccc[n+]1[O-]; target = Cytochrome P450 2C8 (CYP2C8, Homo sapiens, UniProt P10632); assay = enzyme activity, inhibitor; test system = human, liver microsomes; IC50 = 12 µM
Structure (SMILES) = Cc1cc(C)c(S(=O)(=O)Nc2ccc3c(c2)nc(CCCCCCCN)n3Cc2ccccc2)c(C)c1; target = NR1I2 (Homo sapiens, UniProt O75469); assay = ligand displacement, TR-FRET; IC50 = 0.719 µM
Structure (SMILES) = O=C(Nc1ccccc1Nc1ccccc1)c1cccnc1Br; target = Succinate dehydrogenase complex (Sus scrofa, UniProt A5GZW8+D0VWV4+Q007T0+Q0QF01); assay = enzyme activity, inhibitor, double-antibody sandwich ELISA; IC50 = 30 µM
Structure (SMILES) = C=C(NC(=O)C(=C)NC(=O)c1csc(C2=NC3c4csc(n4)C4NC(=O)c5csc(n5)C(C(C)(O)C(C)O)NC(=O)C5CSC(=N5)C(=CC)NC(=O)C(C(C)O)NC(=O)c5csc(n5)C3(CC2)NC(=O)C(=C)NC(=O)C(=C)NC(=O)C(C)NC(=O)C(C(C)CC)NC2C=Cc3c(C(C)O)cc(nc3C2O)C(=O)OC4C)n1)C(N)=O (centres unmarked); target = PSMB5 (Homo sapiens, UniProt P28074); assay = chymotrypsin-like activity, inhibitor; test system = purified 20S proteasome; conditions = 15 min preincubation, 37 °C, together with: Suc-Leu-Leu-Val-Tyr-AMC substrate; IC50 = 2.73 ± 0.2 µM
Structure (SMILES) = c1ccc(CSc2nc3ccccc3cc2CNCCC2CCN(C3CCCC3)CC2)cc1; target = atpE/atpB (Acinetobacter baumannii, UniProt A3M139+B2I0Z6); assay = inhibitor; test system = Acinetobacter baumannii, inner membrane vesicles; IC50 = 0.479 µM
Structure (SMILES) = Cc1[nH]nc2c1N=C(c1ccccc1Cl)c1cnc(N3CCOCC3)cc1N2; target = FLT4 (Homo sapiens, UniProt P35916); assay = enzyme activity, inhibitor; IC50 = 0.00093 µM
Structure (SMILES) = N[C@@H](Cc1c[nH]c2ccc(OCc3cccc(-c4ccsc4)c3)cc12)C(=O)O; target = SLC7A5 (Homo sapiens, UniProt Q01650); assay = transporter uptake, inhibitor, radiometric; IC50 = 19 µM
Structure (SMILES) = NS(=O)(=O)c1ccc(/N=N/c2cc3ccccc3c(C(=O)O)c2O)cc1; target = GLO1 (Homo sapiens, UniProt Q04760); assay = enzyme activity, inhibitor; IC50 = 37.4 µM
Structure (SMILES) = CC[C@H](C)[C@H](NC(C)=O)C(=O)N[C@H]1CSSC[C@@H](C(=O)N[C@@H](Cc2c[nH]c3ccccc23)C(N)=O)NC(=O)[C@H](CCCNC(=N)N)NC(=O)[C@H](Cc2c[nH]cn2)NC(=O)[C@H](C)NC(=O)CNC(=O)[C@H](Cc2c[nH]c3ccccc23)NC(=O)[C@H](CC(=O)O)NC(=O)[C@H](CCC(N)=O)NC(=O)[C@H](Cc2c[nH]c3ccccc23)NC(=O)[C@H](C(C)C)NC1=O; target = Complement C3 (Homo sapiens, UniProt P01024); assay = C3b formation, ELISA; test system = normal human serum; conditions = together with: LPS-coated plate; IC50 = 1.08 µM
Structure (SMILES) = C[C@]12CC[C@@H]3c4ccc(O)cc4CC[C@H]3[C@@H]1[C@H](OCCC#N)CC2=O; target = HSD17B1 (Homo sapiens, UniProt P14061); assay = enzyme activity, inhibitor, radiometric; IC50 = 3.2 µM
Structure (SMILES) = CCCCCC(O)/C=C/C=O (centres unmarked); target = Ketosamine-3-kinase, C24 (FN3KRP, Homo sapiens, UniProt Q9HA64); assay = cysteine probe labelling, competitive isoTOP-ABPP; test system = MDA-MB-231 proteome; IC50 = 6 to 23 µM
Structure (SMILES) = CC(C)S(=O)(=O)c1cccc(O)c(=O)c1O; target = Ribonuclease HI (rnhA, Escherichia coli, UniProt P0A7Y4); assay = enzyme activity, inhibitor; IC50 = 52 µM
Structure (SMILES) = C[C@H](NC(=O)[C@H](CC(=O)NCC(C)(C)C)NC(=O)C(=O)c1c[nH]c2ccccc12)C(=O)NCc1ccc(F)cc1F; target = Proteasome subunit beta type-3/PSMB7 (Homo sapiens, UniProt P49720+Q99436); assay = inhibitor; IC50 = > 100 µM

Some of these lines once more:
Structure (SMILES) = C=C(NC(=O)C(=C)NC(=O)c1csc(C2=NC3c4csc(n4)C4NC(=O)c5csc(n5)C(C(C)(O)C(C)O)NC(=O)C5CSC(=N5)C(=CC)NC(=O)C(C(C)O)NC(=O)c5csc(n5)C3(CC2)NC(=O)C(=C)NC(=O)C(=C)NC(=O)C(C)NC(=O)C(C(C)CC)NC2C=Cc3c(C(C)O)cc(nc3C2O)C(=O)OC4C)n1)C(N)=O (centres unmarked); target = PSMB5 (Homo sapiens, UniProt P28074); assay = chymotrypsin-like activity, inhibitor; test system = purified 20S proteasome; conditions = 15 min preincubation, 37 °C, together with: Suc-Leu-Leu-Val-Tyr-AMC substrate; IC50 = 2.73 ± 0.2 µM
Structure (SMILES) = CCCCCC(O)/C=C/C=O (centres unmarked); target = Ketosamine-3-kinase, C24 (FN3KRP, Homo sapiens, UniProt Q9HA64); assay = cysteine probe labelling, competitive isoTOP-ABPP; test system = MDA-MB-231 proteome; IC50 = 6 to 23 µM
